Assay results of several laboratories.
Compare with care: the assays were run in different laboratories. Values joined by “and” are separate records of one study, mostly repeats; a detail may differ. Numbers after ± are the reported error.
TOP2A: DNA topoisomerase 2-alpha (TOP2A, Homo sapiens, UniProt P11388)
CA12: Carbonic anhydrase 12 (CA12, Homo sapiens, UniProt O43570)

CC(C)C(=O)NCC(=O)O — z-scored log2 fold change (binding, equilibrium dialysis LC-MS; 5 µM, thermostabilized A2AR-BRIL construct; baseline: no-protein control, direction not given): -0.519
CNCC(=O)O — remaining activity (Sodium- and chloride-dependent glycine transporter 2 (Homo sapiens, UniProt Q9Y345, S479G); glycine uptake, inhibitor, [3H]glycine uptake; 100 µM, S479G mutant, log concentration -1, together with: [3H]glycine; baseline: no inhibitor): 103%
OC[C@H]1OC(O)[C@H](O)[C@@H](O)[C@@H]1O (stereo partly drawn) — Ki fold increase (Hexokinase-3 (HK3, Homo sapiens, UniProt P52790, D264A/R265A); substrate inhibitor; baseline: wild type): ≥ 50 fold
c1ccc(-c2n[nH]cc2-c2ccnc3ccccc23)nc1 — log2 fold change (Negative regulator of the PHO system (PHO85, Candida albicans, UniProt Q9HGY5); kinase binding, competitor, MIB/MS competition, item: PHO85; Candida albicans cell lysate; 100 nM; baseline: DMSO): 1.69
COc1cc(NC(=O)c2cscn2)ccc1/N=N/c1ccccc1Cl — activation (GRM1 (Homo sapiens, UniProt Q13255); positive allosteric modulator, IP accumulation; HEK293; 30 µM, in the dark, together with: low-dose orthosteric agonist): -4.43%
Nc1ncnc2c1ncn2[C@@H]1O[C@H](COP(=O)(O)CP(=O)(O)OP(=O)(O)O)[C@@H](O)[C@H]1O — specific binding (P2X purinoceptor 1 (P2RX1, Homo sapiens, UniProt P51575, E122A); saturation binding; HEK293; 130 nM): 1090 CCPM and 1010 CCPM and 1520 CCPM
O=C(O)c1ccc(Nc2ncc3c(n2)-c2ccc(Cl)cc2C(c2c(F)cccc2F)=NC3)cc1 — remaining activity (human DRAK1(h); kinase activity; 1 µM): 60%
O=C(O)C1CCCNC1 (stereo not drawn) — fraction bound (SLC6A6 (Homo sapiens, UniProt P31641, Y138A); binding, microscale thermophoresis; 37.6 nM, fitted curve; higher = more binding): 0.00186
O=C1CCC(N2C(=O)C=C(Nc3cccc(S(=O)(=O)NCCc4ccc(C(F)(F)F)c(Cl)c4)c3)C2=O)C(=O)N1 (stereo not drawn) — Dmax (ZBTB11/CRBN (Homo sapiens, UniProt O95625+Q96SW2); protein degradation, degrader, HiBiT luminescence; MOLT-4): 50%
Nc1ccc(C(=O)O)cc1 — current density (BEST1 (Homo sapiens, UniProt O76090); whole-cell patch clamp; HEK293 transiently expressing channel; concentration not given, membrane potential -20 mV): -19 pA/pF and -10.4 pA/pF and -15.4 pA/pF and -10 pA/pF and -16.8 pA/pF and -20.4 pA/pF and -9.71 pA/pF
O=C(CCCc1ccccc1)C(=O)NCCc1ccc(Oc2ccc(C(F)(F)F)cn2)cc1 — probe-enriched protein abundance (Dpp4 (Mus musculus, UniProt P28843); inhibitor; mouse, WAT cytosol proteome; 10 µM; baseline: DMSO, lower = stronger inhibition): 17000 a.u. and 16900 a.u. and 17200 a.u.
CCOC(=O)[C@H](CCSC)NC(=O)c1ccc(C2CC2)c(Cc2ccc(F)cc2)n1 — Ki ratio (CNR2 (Homo sapiens, UniProt P34972); radioligand binding; baseline: CB1 over CB2 (human)): 6
CC[C@@H]1[C@H](F)C(=O)N[C@@H]1COc1nccc2cc(C(N)=O)c(OC)cc12 — inhibition (STK24 (Homo sapiens, UniProt Q9Y6E0); ATP-site probe binding, ActivX profiling, item: MST3; THP-1 cell lysate; 0.01 mM, Lys1 site): 3.4%
O=c1nc(SCc2cc(F)cc(C(F)(F)F)c2)nc(SCc2ccc3sccc3c2)[nH]1 — linear DNA (TOP2A; DNA cleavage; 31.25 µM, together with: etoposide 50 µM): 22.8%
Cc1cn([C@H]2C[C@H](N=[N+]=[N-])[C@@H](CO)O2)c(=O)[nH]c1=O — selectivity ratio (CA12; stopped-flow CO2 hydration; baseline: Ki hCA VI over Ki hCA XII): 0.86
COc1cc(O)c2c(c1)oc(=O)c1c3cc(O)c(O)cc3oc21 — β-Turn content (MAL12 (Saccharomyces cerevisiae S288c, UniProt P53341); circular dichroism; molar ratio 1:2): 20.3%
O=c1nc(SCc2cc(F)cc(C(F)(F)F)c2)nc(SCc2ccc3nc(Cl)ccc3c2)[nH]1 — mean decatenated DNA (TOP2A; decatenation; 7.8 µM): 84.9%
Nc1nc2c(ncn2[C@@H]2O[C@H](COP(=O)(O)O)[C@@H](O)[C@H]2O)c(=O)[nH]1 — reaction rate (GUK1 (Homo sapiens, UniProt Q16774, R41A); enzyme activity, NADH-coupled; 250 µM): 1.07 s⁻¹ and 0.925 s⁻¹ and 0.959 s⁻¹
O=C(O)CCc1cnccn1 — Kd (Ubiquitin carboxyl-terminal hydrolase 39, ZnF-UBD domain (Homo sapiens, UniProt Q53GS9)): > 1000 µM
Nc1ncnc2c1ncn2C1CCCC1 — Gibbs free energy of binding (Inositol-tetrakisphosphate 1-kinase (Homo sapiens, UniProt Q13572); isothermal titration calorimetry; 25 °C): -9.943 ± 0.0239 kcal/mol
Nc1ncnc2c1ncn2[C@@H]1O[C@H](COP(=O)(O)OP(=O)(O)O)[C@@H](O)[C@H]1O — reduction of acidification (V-type proton ATPase (Rattus norvegicus, UniProt D4A133+P62815+P63081); single-vesicle pHrodo TIRF; rat; 200 µM, twofold excess over ATP, together with: ATP 100 µM): ~20%
COc1cc(-c2cncc3c2CN(C)Cc2cc(N4CCNCC4)ccc2-3)cc(OC)c1OC — remaining activity (Phosphatidylinositol 4,5-bisphosphate 3-kinase catalytic subunit alpha isoform, with p65 alpha (Pik3ca, Mus musculus, UniProt P42337); kinase activity; 1 µM, p110a/p65a)(m mouse, together with: ATP 10 µM; baseline: DMSO): 89%
C[C@H](CCC(C)(C)O)[C@H]1CC[C@H]2[C@@H]3CC=C4C[C@@](C)(O)CC[C@]4(C)[C@H]3CC[C@]12C — Emax (Glutamate NMDA receptor; GRIN1/GRIN2B (GRIN1/GRIN2B, Homo sapiens, UniProt Q05586+Q13224); ion current, positive modulator, automated patch clamp; HEK293 (stable line); together with: glutamate 0.8 µM and glycine; baseline: current without compound): 244%
C=CC(=O)N1CCC(COCC(=O)N2CCN(c3nc(-c4cnc(N)nc4C(F)F)nc(N4CCOC[C@@H]4C)n3)CC2)CC1 — remaining binding (MAP4K4 (Homo sapiens, UniProt O95819); KINOMEscan; 1 µM): 85%
Cc1ncsc1-c1ccc(CNC(=O)[C@@H]2C[C@@H](O)CN2C(=O)[C@@H](NC(=O)CCCCCCCCCCCC(=O)NCCCCC#Cc2cccc(-c3nn(-c4nc(C(=O)O)cs4)c(CC4CC4)c3Cc3ccc(S(N)(=O)=O)cc3)c2)C(C)(C)C)cc1 — onset time of degradation (LDHA (Homo sapiens, UniProt P00338); degrader, western blot; PANC-1; 1 µM): 24 h
CN(C)C(=O)C(CCN1CCC(O)(c2ccc(Cl)cc2)CC1)(c1ccccc1)c1ccccc1 — effective gating valence (Calcium-activated potassium channel subunit alpha-1, with LRRC26 γ1 subunit (KCNMA1, Homo sapiens, UniProt Q12791); BK current, inside-out patch clamp; excised membrane patch; 3 µM, γ1 subunit coexpressed, together with: nominally 0 Ca2+ cytosolic): 1.09 elementary charges
NS(=O)(=O)c1ccc(NC(=O)Nc2ccc(F)cc2)cc1 — selectivity ratio (CA12; stopped-flow CO2 hydration; baseline: Ki CA I over Ki CA XII): 1130
O=S(=O)(O)O — reaction velocity (GUK1 (Homo sapiens, UniProt Q16774); enzyme activity, NADH-coupled; 10 mM, together with: ATP 250 µM): 0.0568 µM/s and 0.0628 µM/s and 0.059 µM/s
CC[C@@H](C)[C@@H](NC(=O)[C@@H](Cc1ccc(O)cc1)NC(=O)[C@H]1CCCN1C(=O)[C@@H](CCCNC(=N)N)NC(=O)[C@H](N)Cc1c[nH]cn1)C(=O)N[C@H](C)C(=O)N[C@H](Cc1c[nH]cn1)C(=O)N[C@H](CCCNC(=N)N)C(=O)N[C@@H](C(=O)N[C@H](Cc1ccc(O)cc1)C(=O)N[C@H](CO)C(=O)N[C@H](Cc1ccccc1)C(N)=O)C(C)C — surface TFRC expression (Transferrin receptor protein 1 (Tfrc, Mus musculus, UniProt Q62351); flow cytometry; B16; 24 h, unit not given; baseline: 0 h): 0.563
N[C@@H](Cc1ccccc1)C(=O)Nc1ccc2ccccc2c1 — kcat (rat neuron-specific aminopeptidase; substrate; MW 110 kDa): 17.5 s⁻¹
COc1cc(-c2cc(C(C)=O)n3ccccc23)c(OC)cc1Cn1ccnc1 — ΔTm (TAF1 (Homo sapiens, UniProt P21675)): 1 °C
NCCS(=O)(=O)O — normalised MST signal (SLC6A6 (Homo sapiens, UniProt P31641, S402A); binding, microscale thermophoresis; 122 nM, room temperature, together with: 50 nM labelled protein; higher = more binding): 0.0382
NC1CCCNC1=O (stereo not drawn) — z-scored log2 fold change (binding, equilibrium dialysis LC-MS; 5 µM, thermostabilized A2AR-BRIL construct; baseline: no-protein control, direction not given): 0.236
CCC1(O)CCCN(C(=O)c2ccc(-c3ccc(F)c(NC(=O)CCl)c3)cc2)C1 (stereo not drawn) — protein adduct (DNA dC->dU-editing enzyme APOBEC-3B, C-terminal domain (Homo sapiens, UniProt Q9UH17); covalent modifier, intact protein mass spectrometry, item: adduct +26487 Da; 25 µM, 3 h, 1-fold molar excess): 0%
CCN(CC)CCNC(=O)C1CCN(c2ccc3nnc(-c4cccc(C)c4)n3n2)CC1 — outward current density (CatSper channel complex (Homo sapiens, UniProt Q7RTX7+Q86XQ3+Q8NEC5+Q96P56); ion current, whole-cell patch clamp; human sperm; 10 µM, at +80 mV): 5.9 ± 1.4 pA/pF
CCCCCCCC(=O)c1cc(OC)c(OC)c(OC)c1CC(=O)OCC — activation (NR1D1 (Homo sapiens, UniProt P20393); reporter gene, Gal4 hybrid reporter; 10 µM; baseline: vehicle): 0.94 fold

Some of these lines once more:
O=C1CCC(N2C(=O)C=C(Nc3cccc(S(=O)(=O)NCCc4ccc(C(F)(F)F)c(Cl)c4)c3)C2=O)C(=O)N1 (stereo not drawn) — Dmax (ZBTB11/CRBN (Homo sapiens, UniProt O95625+Q96SW2); protein degradation, degrader, HiBiT luminescence; MOLT-4): 50%
Cc1ncsc1-c1ccc(CNC(=O)[C@@H]2C[C@@H](O)CN2C(=O)[C@@H](NC(=O)CCCCCCCCCCCC(=O)NCCCCC#Cc2cccc(-c3nn(-c4nc(C(=O)O)cs4)c(CC4CC4)c3Cc3ccc(S(N)(=O)=O)cc3)c2)C(C)(C)C)cc1 — onset time of degradation (LDHA (Homo sapiens, UniProt P00338); degrader, western blot; PANC-1; 1 µM): 24 h
C[C@H](CCC(C)(C)O)[C@H]1CC[C@H]2[C@@H]3CC=C4C[C@@](C)(O)CC[C@]4(C)[C@H]3CC[C@]12C — Emax (Glutamate NMDA receptor; GRIN1/GRIN2B (GRIN1/GRIN2B, Homo sapiens, UniProt Q05586+Q13224); ion current, positive modulator, automated patch clamp; HEK293 (stable line); together with: glutamate 0.8 µM and glycine; baseline: current without compound): 244%
